Experimental data collected from several papers.
A part holds a random share of what one study measured.

Sample 1
Target: TATA-box-binding protein 1 (TBP1, Arabidopsis thaliana, UniProt P28147, residues 1-200, full length assumed)
Technique: protein-binding microarray
Molecule type: double-stranded DNA, one strand shown
Medium: in vitro
Tested at: not given
Notes: k-mer, scored over probes, only values ≥0.25
Reading: higher = stronger binding
Construct (chain): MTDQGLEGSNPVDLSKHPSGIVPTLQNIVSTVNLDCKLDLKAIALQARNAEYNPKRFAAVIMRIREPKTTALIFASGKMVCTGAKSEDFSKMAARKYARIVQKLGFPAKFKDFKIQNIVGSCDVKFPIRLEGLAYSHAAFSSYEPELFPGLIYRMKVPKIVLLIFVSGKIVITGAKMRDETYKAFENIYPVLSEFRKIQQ
| Strand | E-score |
| --- | --- |
| GTGTATA | 0.346 |
| AGATAAT | 0.329 |
| ATGTAAA | 0.328 |
| GTCTTAA | 0.261 |
| ATTATTG | 0.285 |

Sample 2
Target: Histone acetyltransferase KAT6A, winged helix 2, GST fusion (KAT6A, Homo sapiens, UniProt Q92794, residues 85-181)
Technique: protein binding microarray
Molecule type: double-stranded DNA, one strand shown
Medium: in vitro
Tested at: not given
Notes: 8-mer, flanks averaged, mean of 2 arrays, mostly near background
Baseline: not given
Reading: higher = stronger binding
Construct (chain): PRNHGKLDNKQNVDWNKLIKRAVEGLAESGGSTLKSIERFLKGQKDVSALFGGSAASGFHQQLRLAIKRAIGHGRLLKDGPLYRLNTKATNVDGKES
| Strand | E-score |
| --- | --- |
| GGCGTAAA | -0.0769 |
| CTCAATTA | -0.0794 |
| AGATCTCA | -0.0937 |
| CGATAACG | -0.222 |
| ATATAATC | -0.0812 |

Sample 3
Target: Interferon regulatory factor 7, full length, phosphomimetic (IRF7, Homo sapiens, UniProt Q92985, residues 1-503, S471D/S472D/S475D/S476D/S477D/S483D/S484D/S487D)
Technique: protein-binding microarray
Molecule type: double-stranded DNA, one strand shown
Medium: in vitro
Tested at: 2200 nM top
Notes: 60-bp whole probe
Added: salmon DNA 0.4 mg/ml
Baseline: random background probes
Reading: higher = stronger binding
All sequences stand within: GCCTAGCAC … GTGCTAGGTCTTGATTCGCTTGACGCTGCTG
Target sequence (chain): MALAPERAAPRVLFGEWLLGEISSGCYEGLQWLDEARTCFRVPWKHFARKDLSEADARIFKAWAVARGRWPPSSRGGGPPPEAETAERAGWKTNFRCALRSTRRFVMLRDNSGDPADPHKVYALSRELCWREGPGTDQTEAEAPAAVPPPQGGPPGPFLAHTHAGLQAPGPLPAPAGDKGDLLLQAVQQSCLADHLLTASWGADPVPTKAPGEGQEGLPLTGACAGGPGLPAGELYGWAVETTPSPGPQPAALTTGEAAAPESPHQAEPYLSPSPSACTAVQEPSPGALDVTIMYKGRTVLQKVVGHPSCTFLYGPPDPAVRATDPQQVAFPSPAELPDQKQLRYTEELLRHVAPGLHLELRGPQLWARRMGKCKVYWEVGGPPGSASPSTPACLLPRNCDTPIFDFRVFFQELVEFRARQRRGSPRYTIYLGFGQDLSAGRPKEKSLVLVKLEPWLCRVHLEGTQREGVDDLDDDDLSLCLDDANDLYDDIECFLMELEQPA
| Strand | fitted relative affinity [z-score] |
| --- | --- |
| GACGGTTACGGTATCGGGAC | 0.206 |
| GACCGACTGCTTCTCCTGAC | 0.755 |
| CAGATGGAATTAAGAAGATG | -0.775 |
| TTAGGTCTCCTTATCCTGTA | 0.896 |
| GACGGTTTCCTGCTGCTGAC | 1.96 |

Single results of other studies
| Molecule | target | assay | system | conditions | scale | quantity | result |
| --- | --- | --- | --- | --- | --- | --- | --- |
| PhoQ, residues 284 288 289 292 302 303 SMMNNA | PhoP, residues 12 14 15 18 19 AWHSL (Escherichia coli, UniProt P23836) | Sort-seq, refers to: YFP reporter | E. coli | PhoQ-PhoP variant library, added: 10 µM Mg2+ | baseline: high Mg2+ state, higher = stronger signaling | fold induction | 4.35 |

Some of these lines once more (sample 2):
| Strand | E-score |
| --- | --- |
| GGCGTAAA | -0.0769 |
